# Measurements gathered from unrelated publications.
# pIC50: −log10 of the molar value.
# Target: Voltage-gated inwardly rectifying potassium channel KCNH2 (KCNH2, Homo sapiens, UniProt Q12809)
# UniProt Q12809, sequence (whole entry, looked up): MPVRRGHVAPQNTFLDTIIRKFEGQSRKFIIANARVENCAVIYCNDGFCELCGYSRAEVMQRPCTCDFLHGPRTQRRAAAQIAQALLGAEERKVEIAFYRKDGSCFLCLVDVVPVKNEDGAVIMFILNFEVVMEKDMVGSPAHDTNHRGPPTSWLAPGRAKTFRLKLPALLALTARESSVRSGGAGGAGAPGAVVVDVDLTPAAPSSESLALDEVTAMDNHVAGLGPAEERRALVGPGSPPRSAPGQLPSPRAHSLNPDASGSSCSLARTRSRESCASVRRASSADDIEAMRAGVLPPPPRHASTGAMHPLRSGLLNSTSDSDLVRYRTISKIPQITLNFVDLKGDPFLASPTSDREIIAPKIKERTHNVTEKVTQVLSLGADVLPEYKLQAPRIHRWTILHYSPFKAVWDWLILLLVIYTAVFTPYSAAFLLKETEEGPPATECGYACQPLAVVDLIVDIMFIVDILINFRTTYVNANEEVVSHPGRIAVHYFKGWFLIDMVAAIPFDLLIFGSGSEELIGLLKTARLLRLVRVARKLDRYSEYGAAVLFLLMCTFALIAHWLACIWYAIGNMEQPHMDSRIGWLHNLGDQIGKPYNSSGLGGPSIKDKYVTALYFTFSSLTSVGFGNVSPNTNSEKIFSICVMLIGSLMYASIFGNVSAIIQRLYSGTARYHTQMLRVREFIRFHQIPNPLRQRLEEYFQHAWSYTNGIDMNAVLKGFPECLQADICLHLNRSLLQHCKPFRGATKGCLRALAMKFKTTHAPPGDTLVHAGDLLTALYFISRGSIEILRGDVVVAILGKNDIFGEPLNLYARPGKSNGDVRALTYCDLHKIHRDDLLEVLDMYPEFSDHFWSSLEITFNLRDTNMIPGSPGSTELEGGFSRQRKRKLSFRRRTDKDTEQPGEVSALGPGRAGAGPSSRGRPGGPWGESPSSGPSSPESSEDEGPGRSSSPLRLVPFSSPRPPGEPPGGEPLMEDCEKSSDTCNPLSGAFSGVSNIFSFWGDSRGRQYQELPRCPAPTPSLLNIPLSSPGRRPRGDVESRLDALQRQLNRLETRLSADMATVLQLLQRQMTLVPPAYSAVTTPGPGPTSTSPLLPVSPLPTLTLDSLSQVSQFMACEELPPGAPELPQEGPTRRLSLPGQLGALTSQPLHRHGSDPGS
Structure (SMILES),effect on,mode,method,cells,time,pH,pIC50
CCC1(CC)CC(=O)N(C2c3cc(C(=O)NC4c5ccccc5CC4O)ccc3OC2(C)COC)C(=N)N1 (stereo not drawn),ion current,inhibitor,patch clamp,CHO,,pH 7.3,4.60
CN1CCCN(c2cnc3c(cc(C(=O)NCc4ccc(Cl)cc4)c(=O)n3CC(=O)N3CC(C)(F)C3)n2)C1=O,ion current,,automated patch clamp,CHO expressing hERG,,,5.00
Cc1[nH]nc2c1N=C(c1ccccc1Cl)c1cnc(N3CCOCC3)cc1N2,ion current,inhibitor,,,,,5.05
CC(C)(C)n1ncc2c(=O)n(Cc3cccc(F)c3)c(NCc3ccc(F)cn3)nc21,ion current,inhibitor,,,,,< 4.40
CN(C)CCN1CCN(CCCN2c3ccccc3Sc3ccc(C(F)(F)F)cc32)CC1,,,,,,,5.68
CC(C)(C)NCc1ccc(Nc2ccnc3cc(Cl)ccc23)cc1O,ion flux,inhibitor,,,30 min,,< 5.00
CC(=O)N(C)CCN1CCN(c2cnc3c(cc(C(=O)NCc4ccc(Cl)cc4)c(=O)n3CC(=O)N3CC(C)(F)C3)n2)C1=O,ion current,,automated patch clamp,CHO expressing hERG,,,4.89
COC1C(c2ccc(Cl)c(Cc3ccc(OC4CCOC4)cc3)c2)OC(CO)C(O)C1O (stereo not drawn),ion current,inhibitor,,,,,< 4.52
CN(CCC#N)c1nc(NCC[C@H]2CCCN2C)nc2sc(-c3ccccc3)cc12,ion current,inhibitor,,,,,6.34

# A few entries again:
Structure (SMILES),effect on,mode,method,cells,time,pH,pIC50
CC(C)(C)n1ncc2c(=O)n(Cc3cccc(F)c3)c(NCc3ccc(F)cn3)nc21,ion current,inhibitor,,,,,< 4.40
